Experimental data of several laboratories.
Numbered parts are unrelated; each lists some results of a single study.
UniProt Q8TDC3, sequence (whole entry, looked up): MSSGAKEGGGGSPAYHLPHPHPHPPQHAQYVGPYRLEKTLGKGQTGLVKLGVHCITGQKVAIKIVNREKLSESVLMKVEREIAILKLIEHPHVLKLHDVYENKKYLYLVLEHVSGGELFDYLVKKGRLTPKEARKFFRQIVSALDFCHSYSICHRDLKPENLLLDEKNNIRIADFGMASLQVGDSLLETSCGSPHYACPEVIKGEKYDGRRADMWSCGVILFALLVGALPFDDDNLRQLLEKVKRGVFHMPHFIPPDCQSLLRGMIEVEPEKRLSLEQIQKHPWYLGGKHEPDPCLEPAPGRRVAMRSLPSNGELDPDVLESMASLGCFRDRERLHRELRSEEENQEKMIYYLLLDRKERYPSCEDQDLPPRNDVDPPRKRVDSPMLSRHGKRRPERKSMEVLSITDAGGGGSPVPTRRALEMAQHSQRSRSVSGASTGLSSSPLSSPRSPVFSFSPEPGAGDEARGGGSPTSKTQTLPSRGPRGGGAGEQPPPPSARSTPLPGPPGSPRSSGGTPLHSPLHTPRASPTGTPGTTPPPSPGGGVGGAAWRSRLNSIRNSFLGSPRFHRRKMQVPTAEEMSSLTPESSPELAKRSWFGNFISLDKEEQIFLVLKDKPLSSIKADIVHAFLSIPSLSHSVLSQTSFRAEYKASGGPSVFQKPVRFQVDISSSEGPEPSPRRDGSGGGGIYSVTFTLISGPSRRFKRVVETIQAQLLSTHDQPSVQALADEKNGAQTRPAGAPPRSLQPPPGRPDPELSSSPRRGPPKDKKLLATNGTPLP
UniProt P07947, sequence (whole entry, looked up): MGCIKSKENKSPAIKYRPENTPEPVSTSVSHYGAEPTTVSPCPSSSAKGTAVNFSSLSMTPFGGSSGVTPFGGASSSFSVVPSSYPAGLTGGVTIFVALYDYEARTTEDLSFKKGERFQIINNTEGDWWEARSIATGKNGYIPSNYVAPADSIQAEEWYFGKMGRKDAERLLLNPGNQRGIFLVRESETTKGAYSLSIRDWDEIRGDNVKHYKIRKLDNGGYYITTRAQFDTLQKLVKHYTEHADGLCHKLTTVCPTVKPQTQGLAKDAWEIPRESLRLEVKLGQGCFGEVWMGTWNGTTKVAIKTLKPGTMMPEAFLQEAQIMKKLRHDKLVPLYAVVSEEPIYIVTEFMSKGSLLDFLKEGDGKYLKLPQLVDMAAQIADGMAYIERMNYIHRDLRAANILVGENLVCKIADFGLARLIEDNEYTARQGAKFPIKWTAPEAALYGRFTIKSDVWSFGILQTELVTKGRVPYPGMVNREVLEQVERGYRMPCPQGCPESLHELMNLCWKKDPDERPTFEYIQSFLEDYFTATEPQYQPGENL
UniProt Q9H422, sequence (whole entry, looked up): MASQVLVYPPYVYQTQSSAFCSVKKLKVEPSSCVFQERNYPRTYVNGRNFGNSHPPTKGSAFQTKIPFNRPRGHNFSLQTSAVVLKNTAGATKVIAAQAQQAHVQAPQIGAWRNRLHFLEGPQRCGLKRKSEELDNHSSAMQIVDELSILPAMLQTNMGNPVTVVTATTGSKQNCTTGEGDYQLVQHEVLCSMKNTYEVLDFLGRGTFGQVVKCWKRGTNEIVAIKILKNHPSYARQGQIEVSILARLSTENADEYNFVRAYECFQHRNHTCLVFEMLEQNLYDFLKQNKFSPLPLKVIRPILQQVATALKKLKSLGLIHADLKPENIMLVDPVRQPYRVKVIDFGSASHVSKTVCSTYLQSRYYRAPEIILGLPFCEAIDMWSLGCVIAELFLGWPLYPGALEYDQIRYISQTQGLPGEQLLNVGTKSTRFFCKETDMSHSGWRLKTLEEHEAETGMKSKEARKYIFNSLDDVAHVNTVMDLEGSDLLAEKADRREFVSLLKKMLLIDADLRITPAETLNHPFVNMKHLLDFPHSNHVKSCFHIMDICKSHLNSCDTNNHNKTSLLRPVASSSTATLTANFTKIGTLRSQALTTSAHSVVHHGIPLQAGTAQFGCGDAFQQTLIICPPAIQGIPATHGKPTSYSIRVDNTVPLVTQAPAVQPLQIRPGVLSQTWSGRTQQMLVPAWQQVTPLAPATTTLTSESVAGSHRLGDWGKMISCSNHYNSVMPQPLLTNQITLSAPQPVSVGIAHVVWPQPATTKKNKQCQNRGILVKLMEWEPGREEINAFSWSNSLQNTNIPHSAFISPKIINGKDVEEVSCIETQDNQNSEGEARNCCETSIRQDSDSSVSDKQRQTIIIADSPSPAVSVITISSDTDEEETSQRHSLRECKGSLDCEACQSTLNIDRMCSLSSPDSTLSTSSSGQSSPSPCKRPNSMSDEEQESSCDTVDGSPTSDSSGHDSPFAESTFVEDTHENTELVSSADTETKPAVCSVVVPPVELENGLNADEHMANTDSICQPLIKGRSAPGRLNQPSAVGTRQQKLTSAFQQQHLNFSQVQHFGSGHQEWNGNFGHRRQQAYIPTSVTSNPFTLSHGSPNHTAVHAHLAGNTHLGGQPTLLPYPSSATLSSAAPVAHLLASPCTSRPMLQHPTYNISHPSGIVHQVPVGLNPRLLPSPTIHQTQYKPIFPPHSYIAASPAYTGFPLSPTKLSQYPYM
UniProt P34947, sequence (whole entry, looked up): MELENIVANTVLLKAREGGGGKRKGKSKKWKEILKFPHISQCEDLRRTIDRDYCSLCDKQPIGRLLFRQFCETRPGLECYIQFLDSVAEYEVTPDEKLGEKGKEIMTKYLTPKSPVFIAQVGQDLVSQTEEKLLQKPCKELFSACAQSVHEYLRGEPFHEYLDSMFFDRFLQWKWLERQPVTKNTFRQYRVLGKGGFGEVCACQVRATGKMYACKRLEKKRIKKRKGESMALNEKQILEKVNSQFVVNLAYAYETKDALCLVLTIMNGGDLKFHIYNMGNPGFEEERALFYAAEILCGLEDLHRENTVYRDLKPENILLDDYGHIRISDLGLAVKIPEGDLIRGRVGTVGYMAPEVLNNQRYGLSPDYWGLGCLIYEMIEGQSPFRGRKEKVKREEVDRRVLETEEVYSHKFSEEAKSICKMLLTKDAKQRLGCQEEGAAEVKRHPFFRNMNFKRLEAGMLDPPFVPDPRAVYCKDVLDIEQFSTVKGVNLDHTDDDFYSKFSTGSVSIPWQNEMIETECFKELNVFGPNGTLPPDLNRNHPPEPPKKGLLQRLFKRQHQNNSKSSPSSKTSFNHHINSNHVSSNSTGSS
UniProt Q16620, sequence (whole entry, looked up): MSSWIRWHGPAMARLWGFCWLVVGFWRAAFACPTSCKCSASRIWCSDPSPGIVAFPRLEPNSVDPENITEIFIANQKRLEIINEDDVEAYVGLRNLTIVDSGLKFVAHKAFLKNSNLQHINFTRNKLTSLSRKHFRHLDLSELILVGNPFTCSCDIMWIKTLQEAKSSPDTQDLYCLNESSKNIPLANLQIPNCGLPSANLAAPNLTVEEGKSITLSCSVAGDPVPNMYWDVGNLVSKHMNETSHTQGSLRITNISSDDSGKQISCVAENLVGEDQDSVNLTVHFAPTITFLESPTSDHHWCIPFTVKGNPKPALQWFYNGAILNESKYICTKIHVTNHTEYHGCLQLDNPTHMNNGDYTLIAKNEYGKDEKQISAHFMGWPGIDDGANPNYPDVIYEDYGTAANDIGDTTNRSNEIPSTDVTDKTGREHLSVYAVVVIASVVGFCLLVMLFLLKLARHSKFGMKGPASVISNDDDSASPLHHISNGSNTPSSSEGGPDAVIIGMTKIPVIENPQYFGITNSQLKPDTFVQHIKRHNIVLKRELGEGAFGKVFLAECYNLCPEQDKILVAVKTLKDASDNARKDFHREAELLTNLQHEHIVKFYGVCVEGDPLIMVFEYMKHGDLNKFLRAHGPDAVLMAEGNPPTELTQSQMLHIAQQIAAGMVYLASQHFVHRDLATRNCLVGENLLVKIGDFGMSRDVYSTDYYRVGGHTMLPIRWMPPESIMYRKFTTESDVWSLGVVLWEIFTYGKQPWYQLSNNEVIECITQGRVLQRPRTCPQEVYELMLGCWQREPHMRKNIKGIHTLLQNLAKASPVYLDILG

Study 1
SMILES: N#Cc1ccc(Nc2ccc3[nH]c(=O)[nH]c3c2)c(Cl)c1
Effect on: cell-free assay
Technique: competition with immobilised ligand
Tested at: 1 µM
| target | remaining binding [%] |
| --- | --- |
| PIKFYVE (Homo sapiens, UniProt Q9Y2I7) | 82 |
| Tyrosine-protein kinase ABL1, non-phosphorylated (ABL1, Homo sapiens, UniProt P00519, H396P) | 93 |
| LATS2 (Homo sapiens, UniProt Q9NRM7) | 95 |
| KIT (Homo sapiens, UniProt P10721, A829P) | 100 |
| DCLK3 (Homo sapiens, UniProt Q9C098) | 88 |
| NTRK2 (Homo sapiens, UniProt Q16620) | 100 |
| EGFR (Homo sapiens, UniProt P00533, G719S) | 100 |
| PRKG1 (Homo sapiens, UniProt Q13976) | 80 |
| BRSK1 (Homo sapiens, UniProt Q8TDC3) | 100 |
| PIK3C2B (Homo sapiens, UniProt O00750) | 99 |
| YES1 (Homo sapiens, UniProt P07947) | 100 |
| Ribosomal protein S6 kinase alpha-4, C-terminal kinase domain (RPS6KA4, Homo sapiens, UniProt O75676) | 95 |
| Tyrosine-protein kinase ABL1, phosphorylated (ABL1, Homo sapiens, UniProt P00519, M351T) | 100 |
| MET (Homo sapiens, UniProt P08581) | 94 |
| CLK4 (Homo sapiens, UniProt Q9HAZ1) | 98 |
| STK38 (Homo sapiens, UniProt Q15208) | 95 |

Study 2
Compound: Cc1ccc(NC(=O)c2ccc(CN3CCN(C)CC3)cc2)cc1Nc1nccc(-c2cccnc2)n1
Effect on: enzyme activity
Action: inhibitor
Tested at: 0.5 µM
Reference: control
| target | remaining activity [%] |
| --- | --- |
| CAMK1D (Homo sapiens, UniProt Q8IU85) | 95 |
| MAP3K2 (Homo sapiens, UniProt Q9Y2U5) | 110 |
| PRKD1 (Homo sapiens, UniProt Q15139) | 97.9 |
| DYRK4 (Homo sapiens, UniProt Q9NR20) | 104 |
| ROS1 (Homo sapiens, UniProt P08922) | 85.9 |
| ROCK2 (Homo sapiens, UniProt O75116) | 103 |
| NTRK3 (Homo sapiens, UniProt Q16288) | 95.2 |
| DMPK (Homo sapiens, UniProt Q09013) | 98.2 |
| MAPK10 (Homo sapiens, UniProt P53779) | 90.8 |
| SLK (Homo sapiens, UniProt Q9H2G2) | 104 |
| HIPK3 (Homo sapiens, UniProt Q9H422) | 98.9 |
| Aurora kinase A (AURKA, Homo sapiens, UniProt O14965) | 98.2 |
| PKN2 (Homo sapiens, UniProt Q16513) | 96.9 |
| PTK2B (Homo sapiens, UniProt Q14289) | 101 |
| CAMK1G (Homo sapiens, UniProt Q96NX5) | 98.4 |
| BRSK1 (Homo sapiens, UniProt Q8TDC3) | 98.2 |
| GRK5 (Homo sapiens, UniProt P34947) | 95 |
| NEK9 (Homo sapiens, UniProt Q8TD19) | 99.6 |
| MAP3K8 (Homo sapiens, UniProt P41279) | 92.7 |
| CSNK2A2 (Homo sapiens, UniProt P19784) | 94.5 |

Study 3
Target: Ras GTPase-activating protein-binding protein 1, RRM domain (G3BP1, Homo sapiens, UniProt Q13283)
UniProt Q13283, sequence (whole entry, looked up): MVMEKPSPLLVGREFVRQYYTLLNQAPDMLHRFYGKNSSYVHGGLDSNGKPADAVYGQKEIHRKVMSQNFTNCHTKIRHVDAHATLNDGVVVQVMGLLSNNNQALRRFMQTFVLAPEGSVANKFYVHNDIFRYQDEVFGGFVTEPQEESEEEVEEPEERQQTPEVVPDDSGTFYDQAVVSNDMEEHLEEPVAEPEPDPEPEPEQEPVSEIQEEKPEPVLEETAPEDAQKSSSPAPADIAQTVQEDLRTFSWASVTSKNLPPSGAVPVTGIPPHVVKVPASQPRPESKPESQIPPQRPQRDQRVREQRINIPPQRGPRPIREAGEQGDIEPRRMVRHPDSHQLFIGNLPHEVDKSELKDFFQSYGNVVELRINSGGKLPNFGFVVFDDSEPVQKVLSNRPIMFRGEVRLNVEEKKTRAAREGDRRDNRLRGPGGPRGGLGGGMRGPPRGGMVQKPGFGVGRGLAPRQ
Technique: RNA Bind-n-Seq
Molecule type: RNA
Matrix: in vitro
Tested at: 1 µM
Setting: whole 134-nt RNA, ends assumed
With: 150 mM KCl
Reference: input library
Reading: higher = stronger binding
Shared flanks, not repeated: GGGAGUUCUACAGUCCGACGAUC … UGGAAUUCUCGGGUGUCAAGG
| Oligonucleotide | log2 enrichment |
| --- | --- |
| AAGUCCUGUGCUACACAUCGUAUGUACCGAAUCGGGGUUUGGUUUGGGGUUUGGGGAAAGUAUUAUGUUACGCCGUUCGGAUCUGCACUU | -0.0411 |
| AGUCCUGUGCUACACAUCGUAUGUACCGAAUCGGGAAAAAGGGUUUUUGGGUUUGGGAAAGUAUUAUGUUACGCCGUUCGGAUCUGCACU | 0.218 |
| UCCUGUGCUACACAUCGUAUGUACCGAAUCGGGGUUUUUGGUUUUUGGGGUUUUUGGGGAAAGUAUUAUGUUACGCCGUUCGGAUCUGCA | -0.118 |
| UUGUGAGAGCCACAGGAAAAGCAAGAAGGAGAAGAAGAAAAAGAAAAAGAGGAAACACAAGAAAGAGAAGAAGAAGAAAGACAAAGAGCA | 0.251 |
| CUCAAGUCCUGUGCUACACAUCGUAUGUACCGAAUCGGGUUGGGGUUGGUUGGGAAAGUAUUAUGUUACGCCGUUCGGAUCUGCACUUCC | -0.0178 |
| AAGUCCUGUGCUACACAUCGUAUGUACCGAAUCGGUUUUUUUGGUUUUUGGUUUGGAAAGUAUUAUGUUACGCCGUUCGGAUCUGCACUU | -0.156 |
| UGGGAGGUGGAUUUUGUUUAUUUUUUUAGCUCAUUUCCAGGGGUGGGAAUUUUUUUUUAAUAUGUGUCAUGUAUAAAGUUGUUUUUGAAA | 2.19 |
| GCAGGAAGUAAAAACAAAUGGAAAUGCUUCGGAUAGUAAAAGGGGUGGGGGUUGCUAAGGAAAGGGUGGGAUGGGAGUGGGUAAAGAGUU | 1.35 |

Study 4
Target: Eukaryotic initiation factor 4A-I (EIF4A1, Homo sapiens, UniProt P60842, residues 1-406, full length assumed)
UniProt P60842, sequence (whole entry, looked up): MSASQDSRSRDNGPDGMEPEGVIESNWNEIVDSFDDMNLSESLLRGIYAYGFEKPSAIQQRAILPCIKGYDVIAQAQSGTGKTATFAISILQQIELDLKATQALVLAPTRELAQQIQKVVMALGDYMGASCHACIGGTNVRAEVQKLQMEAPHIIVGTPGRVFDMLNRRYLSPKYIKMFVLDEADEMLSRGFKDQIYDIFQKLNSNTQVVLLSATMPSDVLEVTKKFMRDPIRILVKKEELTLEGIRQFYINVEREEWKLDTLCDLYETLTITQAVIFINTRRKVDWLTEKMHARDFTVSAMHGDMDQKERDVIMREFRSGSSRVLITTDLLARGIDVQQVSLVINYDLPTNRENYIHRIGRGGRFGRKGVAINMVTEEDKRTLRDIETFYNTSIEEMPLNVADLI
Technique: RNA Bind-n-Seq
Molecule type: RNA
Matrix: in vitro
Tested at: 15 pmol
Setting: 4-mer, random 30-nt RNA, single round
With: DMSO vehicle, 2 mM AMP-PNP
Reference: input library
Reading: higher = stronger binding
| Oligonucleotide | 4-mer enrichment [fold] |
| --- | --- |
| AUUC | 0.897 |
| CCGG | 0.821 |
| ACAU | 0.958 |
| UGGU | 1.01 |
| CUUA | 0.85 |
| GAGA | 1.02 |
| CCAA | 2.01 |
| AGCA | 1.41 |
